Measurements gathered from unrelated publications.
A part holds a random share of what one study measured.

Set 1 — method: protein binding microarray; molecule type: double-stranded DNA, one strand shown; sample: in vitro; concentration: not given; baseline: not given; direction: higher = stronger binding
Target: Histone acetyltransferase KAT6A, winged helix 1, GST fusion (KAT6A, Homo sapiens, UniProt Q92794, residues 1-85)
Notes: 8-mer, flanks averaged, mean of 2 arrays, mostly near background
Target sequence (chain): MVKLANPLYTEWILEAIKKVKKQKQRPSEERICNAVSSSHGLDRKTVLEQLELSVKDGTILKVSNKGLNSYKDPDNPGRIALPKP
Oligonucleotide	E-score
AGCTTGCC	0.0767
CAGCTACA	-0.0675
CGGATCCA	0.073
CGACAAGC	0.225
AATGACTG	-0.268

Set 2 — method: protein-binding microarray; molecule type: double-stranded DNA, one strand shown; sample: in vitro; concentration: 250 nM; notes: 60-bp whole probe; with: salmon DNA 0.4 mg/ml; baseline: random background probes; direction: higher = stronger binding; shared flanks, not repeated: GCCTAGCAC … GTCTTGATTCGCTTGACGCTGCTG
Target: Interferon regulatory factor 7, full length, phosphomimetic (IRF7, Homo sapiens, UniProt Q92985, residues 1-503, S101K/S471D/S472D/S475D/S476D/S477D/S483D/S484D/S487D)
Residues (chain): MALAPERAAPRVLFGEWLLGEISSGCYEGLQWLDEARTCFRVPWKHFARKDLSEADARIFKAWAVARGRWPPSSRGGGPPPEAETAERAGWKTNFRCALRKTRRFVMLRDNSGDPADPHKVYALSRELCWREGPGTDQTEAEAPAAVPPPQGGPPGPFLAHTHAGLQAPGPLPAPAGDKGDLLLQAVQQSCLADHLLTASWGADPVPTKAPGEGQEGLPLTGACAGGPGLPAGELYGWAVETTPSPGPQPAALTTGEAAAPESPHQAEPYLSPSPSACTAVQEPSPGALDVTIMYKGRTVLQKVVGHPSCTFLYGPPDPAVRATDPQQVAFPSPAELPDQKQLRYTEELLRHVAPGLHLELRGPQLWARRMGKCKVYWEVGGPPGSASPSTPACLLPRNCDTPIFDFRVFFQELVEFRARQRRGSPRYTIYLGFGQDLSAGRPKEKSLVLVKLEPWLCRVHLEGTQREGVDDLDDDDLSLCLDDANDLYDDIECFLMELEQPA
Oligonucleotide	log fluorescence [z-score]
TTAGATTTCGGGACTGGATTAGTGCTA	0.562
TTCTGAGCCTGGGTGGATGGGTGCTAG	-0.792
GACGATTTCGGGACTGAAGACGTGCTA	0.125
GACGGTATCGGCACTGGGGACGTGCTA	-0.78
TTAGATTTCCTTATCCTTTAGTGCTAG	1.14
TTAAATTTCGGGTATCGATTAGTGCTA	1.9

Set 3 — method: RNA Bind-n-Seq; molecule type: RNA; sample: in vitro; concentration: 365 nM; baseline: no-protein control; direction: higher = stronger binding
Target: RNA binding protein fox-1 homolog 2, RRM domain, GST-SBP tag (RBFOX2, Homo sapiens, UniProt O43251-10, residues 100-194)
Notes: natural RNA segment, single round, ends assumed
Oligonucleotide	RBNS enrichment (R)
GGGAGUUCUACAGUCCGACGAUCCCAAAUCAGAACAGCUCAGCAACCCCUGAAUUUGACAGUCUCACCAAUUUCAGAAAAUCAUUAAAAAGAAAAUAUUGAAAGGAAAAUGUUUUCUUUUUGAAGACUUCUGGUGGAAUUCUCGGGUGCCAA	0.742
GGGAGUUCUACAGUCCGACGAUCGCUUAGAUACCCAUAAAAUGCAAAAGGCACAGGUGUGUUGAAUAUUCAGAAGUCAAAGAAAUUACAUGUUUGGGAUUGAUGAGUCUUUAGGGCAGAAGCCAGCUGCAGAAUGGAAUUCUCGGGUGCCAA	0.644
GGGAGUUCUACAGUCCGACGAUCAGAGCAUAGCUAAUGUACCUGGAAUCUGAGCAGCCCUGGUCUCAGCAGAGCCUGAAAUUAAACUCAUUUGUUUCCAGCAUCCGUGUGUUUGCACAAAGGAUUUGACGCCAUGGAAUUCUCGGGUGCCAA	0.81
GGGAGUUCUACAGUCCGACGAUCGAAGGAAGGAAGAAAAGAAGGAAGGAAGAAGCAUUUGGAAGGAGAACCAGACUGAAAGCUUCAGAGCAAUAAUGUGACUGAAAACUUAUUUAAAGUUAGCUUCUUUCCACUGGAAUUCUCGGGUGCCAA	0.541

Single results of other studies
Substance	target	test	system	conditions	scale	endpoint	result
PhoQ, residues 284 288 289 292 302 303 SLKLQV	PhoP, residues 12 14 15 18 19 IQSYL (Escherichia coli, UniProt P23836)	Sort-seq, item: YFP reporter	E. coli	PhoQ-PhoP variant library, with: 10 µM Mg2+	baseline: high Mg2+ state, higher = stronger signaling	fold induction	13.9
